Measurements from different studies.
Each line is one published result; not all experiments were run side by side. ± gives the spread as reported.
G-protein coupled receptor 39: G-protein coupled receptor 39 (Mus musculus, UniProt Q5U431)
Sequence of UniProt Q5U431 (whole entry, looked up): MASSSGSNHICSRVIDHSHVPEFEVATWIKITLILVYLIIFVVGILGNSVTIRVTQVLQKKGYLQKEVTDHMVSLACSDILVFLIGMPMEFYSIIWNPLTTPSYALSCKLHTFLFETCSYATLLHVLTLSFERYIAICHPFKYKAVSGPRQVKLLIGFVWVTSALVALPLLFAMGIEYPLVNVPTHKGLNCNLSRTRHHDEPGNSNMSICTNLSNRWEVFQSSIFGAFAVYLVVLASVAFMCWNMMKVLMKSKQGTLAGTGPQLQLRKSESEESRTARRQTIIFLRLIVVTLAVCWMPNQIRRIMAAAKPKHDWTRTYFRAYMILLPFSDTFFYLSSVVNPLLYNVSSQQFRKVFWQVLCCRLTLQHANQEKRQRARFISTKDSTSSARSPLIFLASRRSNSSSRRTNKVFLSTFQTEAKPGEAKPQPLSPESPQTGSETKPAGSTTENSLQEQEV
ADGRG1: ADGRG1 (Homo sapiens, UniProt Q9Y653)
Sequence of UniProt Q9Y653 (whole entry, unmodified, looked up): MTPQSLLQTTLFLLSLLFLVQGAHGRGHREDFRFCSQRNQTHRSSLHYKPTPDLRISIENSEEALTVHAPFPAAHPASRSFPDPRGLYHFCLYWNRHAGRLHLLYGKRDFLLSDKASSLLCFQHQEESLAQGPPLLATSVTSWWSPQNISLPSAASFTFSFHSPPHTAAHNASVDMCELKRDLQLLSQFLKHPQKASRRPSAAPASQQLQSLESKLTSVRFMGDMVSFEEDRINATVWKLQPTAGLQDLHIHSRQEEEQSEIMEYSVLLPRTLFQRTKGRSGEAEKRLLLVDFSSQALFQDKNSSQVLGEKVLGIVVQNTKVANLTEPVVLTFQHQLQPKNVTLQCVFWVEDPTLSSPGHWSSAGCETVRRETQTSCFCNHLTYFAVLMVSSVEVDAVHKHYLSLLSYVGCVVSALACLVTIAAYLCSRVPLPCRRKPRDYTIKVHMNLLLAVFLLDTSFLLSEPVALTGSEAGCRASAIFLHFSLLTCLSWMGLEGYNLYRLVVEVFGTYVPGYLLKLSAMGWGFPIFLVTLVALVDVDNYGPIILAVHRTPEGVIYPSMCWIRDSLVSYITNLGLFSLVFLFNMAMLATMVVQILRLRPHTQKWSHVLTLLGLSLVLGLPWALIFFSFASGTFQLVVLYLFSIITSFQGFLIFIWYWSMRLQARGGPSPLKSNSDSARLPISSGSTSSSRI
Kir3.1/Kir3.2: Kir3.1/Kir3.2 (Homo sapiens, UniProt P48051+P48549)
Sequence of UniProt P48549 (whole entry, looked up): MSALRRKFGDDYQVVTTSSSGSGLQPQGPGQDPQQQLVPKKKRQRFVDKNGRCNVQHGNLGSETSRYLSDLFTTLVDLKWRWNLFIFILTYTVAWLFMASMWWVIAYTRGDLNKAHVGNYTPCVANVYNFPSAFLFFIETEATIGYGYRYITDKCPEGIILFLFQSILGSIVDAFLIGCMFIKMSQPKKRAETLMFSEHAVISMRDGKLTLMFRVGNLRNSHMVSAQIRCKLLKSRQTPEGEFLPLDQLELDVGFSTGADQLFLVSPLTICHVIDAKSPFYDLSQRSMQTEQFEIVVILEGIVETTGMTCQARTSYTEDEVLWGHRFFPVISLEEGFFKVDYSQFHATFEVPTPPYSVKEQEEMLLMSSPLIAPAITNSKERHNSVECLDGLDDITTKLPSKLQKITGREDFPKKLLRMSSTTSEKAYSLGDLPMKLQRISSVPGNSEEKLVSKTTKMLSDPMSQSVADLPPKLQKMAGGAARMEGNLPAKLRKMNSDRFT
Sequence of UniProt P48051 (whole entry, looked up): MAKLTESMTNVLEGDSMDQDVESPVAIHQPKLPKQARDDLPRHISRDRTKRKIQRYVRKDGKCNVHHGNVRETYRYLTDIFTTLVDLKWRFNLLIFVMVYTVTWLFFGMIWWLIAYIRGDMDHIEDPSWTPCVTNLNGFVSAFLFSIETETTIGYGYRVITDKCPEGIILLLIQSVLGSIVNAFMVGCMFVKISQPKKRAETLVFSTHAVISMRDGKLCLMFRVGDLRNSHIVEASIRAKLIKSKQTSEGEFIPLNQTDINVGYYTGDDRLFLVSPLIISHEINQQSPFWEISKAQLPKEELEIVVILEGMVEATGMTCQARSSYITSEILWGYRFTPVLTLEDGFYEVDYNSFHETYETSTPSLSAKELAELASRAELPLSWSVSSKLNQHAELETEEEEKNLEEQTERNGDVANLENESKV
GPBAR1: G-protein coupled bile acid receptor 1 (GPBAR1, Homo sapiens, UniProt Q8TDU6)
Sequence of UniProt Q8TDU6 (whole entry, looked up): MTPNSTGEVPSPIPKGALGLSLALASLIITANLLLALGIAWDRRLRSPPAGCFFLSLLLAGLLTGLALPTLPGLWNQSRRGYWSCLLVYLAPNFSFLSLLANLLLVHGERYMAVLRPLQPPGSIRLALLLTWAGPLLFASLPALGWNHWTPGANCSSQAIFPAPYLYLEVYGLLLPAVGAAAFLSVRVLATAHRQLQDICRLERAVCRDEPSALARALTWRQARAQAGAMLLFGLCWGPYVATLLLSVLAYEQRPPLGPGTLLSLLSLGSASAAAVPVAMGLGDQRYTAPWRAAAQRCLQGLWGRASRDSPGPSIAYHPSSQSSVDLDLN
CXCL8: Interleukin-8 (CXCL8, Homo sapiens, UniProt P10145)
Sequence of UniProt P10145 (whole entry, looked up): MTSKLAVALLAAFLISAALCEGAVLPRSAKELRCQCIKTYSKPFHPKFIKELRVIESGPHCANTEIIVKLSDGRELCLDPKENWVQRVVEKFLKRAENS
Sequence of UniProt P48546 (whole entry, looked up): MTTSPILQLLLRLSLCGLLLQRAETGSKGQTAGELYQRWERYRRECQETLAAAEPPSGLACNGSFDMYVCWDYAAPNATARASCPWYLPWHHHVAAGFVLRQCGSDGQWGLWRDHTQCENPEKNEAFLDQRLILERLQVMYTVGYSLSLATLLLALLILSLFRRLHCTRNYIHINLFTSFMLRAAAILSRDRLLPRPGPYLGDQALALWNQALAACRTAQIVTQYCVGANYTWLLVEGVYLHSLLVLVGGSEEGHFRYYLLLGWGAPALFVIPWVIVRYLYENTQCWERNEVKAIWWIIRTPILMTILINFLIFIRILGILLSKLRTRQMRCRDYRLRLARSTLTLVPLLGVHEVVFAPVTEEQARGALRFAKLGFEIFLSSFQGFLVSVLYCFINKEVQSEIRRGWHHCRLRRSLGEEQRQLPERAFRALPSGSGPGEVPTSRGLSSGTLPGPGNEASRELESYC
Sequence of UniProt P14867 (whole entry, unmodified, looked up): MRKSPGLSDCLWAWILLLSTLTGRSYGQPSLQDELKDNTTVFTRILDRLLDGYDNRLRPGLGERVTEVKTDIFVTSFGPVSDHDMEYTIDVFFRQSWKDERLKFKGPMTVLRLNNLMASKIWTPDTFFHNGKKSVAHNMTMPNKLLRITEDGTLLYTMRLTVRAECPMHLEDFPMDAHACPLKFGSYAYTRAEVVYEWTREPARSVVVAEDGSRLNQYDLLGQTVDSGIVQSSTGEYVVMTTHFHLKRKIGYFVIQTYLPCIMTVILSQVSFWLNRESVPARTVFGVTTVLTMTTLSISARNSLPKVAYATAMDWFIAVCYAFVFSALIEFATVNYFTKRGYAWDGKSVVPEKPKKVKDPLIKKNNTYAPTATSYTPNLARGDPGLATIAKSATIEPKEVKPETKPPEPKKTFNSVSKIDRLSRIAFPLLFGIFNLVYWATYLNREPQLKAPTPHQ
Sequence of UniProt Q9H1C0 (whole entry, looked up): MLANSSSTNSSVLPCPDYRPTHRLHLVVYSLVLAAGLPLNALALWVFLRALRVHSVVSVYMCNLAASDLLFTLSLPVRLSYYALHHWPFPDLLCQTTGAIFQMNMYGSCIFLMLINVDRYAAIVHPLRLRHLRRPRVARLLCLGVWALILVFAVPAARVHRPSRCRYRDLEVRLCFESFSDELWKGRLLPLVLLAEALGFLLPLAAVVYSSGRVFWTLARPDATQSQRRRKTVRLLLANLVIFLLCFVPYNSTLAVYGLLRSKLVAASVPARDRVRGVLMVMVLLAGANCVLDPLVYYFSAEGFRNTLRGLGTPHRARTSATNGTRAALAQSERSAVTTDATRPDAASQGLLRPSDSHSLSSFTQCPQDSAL
Sequence of UniProt P25103 (whole entry, looked up): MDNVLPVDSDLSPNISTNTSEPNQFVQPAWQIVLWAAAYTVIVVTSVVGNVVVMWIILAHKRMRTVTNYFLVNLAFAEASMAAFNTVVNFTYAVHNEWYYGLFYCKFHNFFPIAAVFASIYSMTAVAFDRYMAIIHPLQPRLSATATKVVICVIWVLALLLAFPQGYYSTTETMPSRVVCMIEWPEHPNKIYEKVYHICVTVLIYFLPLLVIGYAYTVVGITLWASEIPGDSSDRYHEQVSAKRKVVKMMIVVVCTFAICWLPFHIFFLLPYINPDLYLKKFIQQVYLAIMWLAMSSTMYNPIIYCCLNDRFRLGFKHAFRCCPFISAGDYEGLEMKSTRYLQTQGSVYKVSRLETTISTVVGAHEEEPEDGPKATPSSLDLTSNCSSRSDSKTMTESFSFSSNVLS
Sequence of UniProt Q2G036 (whole entry, looked up): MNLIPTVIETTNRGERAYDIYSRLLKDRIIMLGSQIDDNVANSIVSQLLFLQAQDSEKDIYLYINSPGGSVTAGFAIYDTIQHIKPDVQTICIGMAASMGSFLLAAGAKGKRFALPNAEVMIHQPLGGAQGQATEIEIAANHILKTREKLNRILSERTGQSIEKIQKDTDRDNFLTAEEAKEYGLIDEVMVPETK
Sequence of UniProt Q9Y6W6 (whole entry, looked up): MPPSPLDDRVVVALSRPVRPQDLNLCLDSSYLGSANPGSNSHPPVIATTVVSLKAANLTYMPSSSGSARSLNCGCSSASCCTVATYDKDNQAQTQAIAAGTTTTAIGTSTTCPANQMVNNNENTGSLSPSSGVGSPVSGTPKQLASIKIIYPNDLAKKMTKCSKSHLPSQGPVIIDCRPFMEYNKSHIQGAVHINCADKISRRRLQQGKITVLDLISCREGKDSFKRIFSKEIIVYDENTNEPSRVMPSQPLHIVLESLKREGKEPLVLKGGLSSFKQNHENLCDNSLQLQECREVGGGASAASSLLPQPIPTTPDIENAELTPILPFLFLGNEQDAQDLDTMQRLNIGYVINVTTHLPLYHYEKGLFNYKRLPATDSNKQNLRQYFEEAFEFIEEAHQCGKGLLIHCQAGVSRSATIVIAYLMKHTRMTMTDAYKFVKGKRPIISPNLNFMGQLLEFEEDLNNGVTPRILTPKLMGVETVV

SMILES | target | test | test system | setting | EC50
CC(CCC(=O)NCCS(=O)(=O)O)C1CCC2C3CCC4CC(O)CCC4(C)C3CC(O)C12C (stereo not shown) | G-protein coupled receptor 39 | calcium signal, agonist, fluorescence | – | – | > 200 µM
O=C(Cc1ccc(OCc2ccccc2)cc1)NC1(C(=O)O)CCN(C(=O)c2ccc(-c3cccc(Cl)c3)cc2)CC1 | LPAR5 (Homo sapiens, UniProt Q9H1C0) | cAMP, agonist, luciferase | – | – | > 10 µM
Nc1ncnc2c1ncn2[C@@H]1O[C@H](COP(=O)(O)OP(=O)(O)OC[C@H]2OC(O)[C@H](O)[C@@H]2O)[C@@H](O)[C@H]1OP(=O)(O)O (stereo partly shown) | TRPM2 (Nematostella vectensis, UniProt A7T1N0, K147A) | agonist | – | – | 46 ± 3 µM
CC(C)C[C@H](NC(=O)CNC(=O)[C@H](C)NC(=O)[C@H](C)NC(=O)[C@H](CCCNC(=N)N)NC(=O)CNC(=O)CCCCNC(=O)CCCCNC(=O)CCCCNC(=O)[C@H](CCCCN)NC(=O)[C@H](Cc1ccc(O)cc1)NC(=O)[C@@H](N)Cc1c[nH]c2ccccc12)C(=O)N[C@H](CC(C)C)C(N)=O | NPBWR1 (Homo sapiens, UniProt P48145) | calcium signal, agonist | – | – | 0.463 µM
Cn1c(=O)n(C2CCC(=O)NC2=O)c2ccc(C3CCN(CC(=O)Nc4cccc(CS(=O)(=O)N5CC[C@H](Nc6cccc(-c7sc(C(=O)O)c(OCC(=O)O)c7Cl)c6)CC5(C)C)c4)CC3)cc21 (stereo partly shown) | Dual specificity protein phosphatase 10 (Homo sapiens, UniProt Q9Y6W6) | phosphatase activity | – | together with: DiFMUP substrate | > 10 µM
CC(CCC(=O)NCCS(=O)(=O)O)C1CCC2C3CCC4CC(OS(=O)(=O)O)CCC4(C)C3CCC12C (stereo not shown) | G-protein coupled receptor 39 | calcium signal, agonist, fluorescence | – | – | 71.6 µM
CC1=C(C(=O)OC2CCCC2)C(c2ccccc2C(F)(F)F)C2=C(CC(C)(C)CC2=O)N1 (stereo not shown) | ADGRG1 | G13 activation, agonist, GTPγS binding, reconstitution | – | – | 1.75 ± 0.13 µM
O=C(O)c1ccccc1OCc1ccccc1Br | GTPase HRas (HRAS, Homo sapiens, UniProt P01112) | GTP binding, flow cytometry | – | EDTA, together with: BODIPY-GTP 100 nM | 0.11 µM
CC(CCC(=O)NCCS(=O)(=O)O)C1CCC2C3C(O)CC4CC(O)CCC4(C)C3CCC12C (stereo not shown) | G-protein coupled receptor 39 | calcium signal, agonist, fluorescence | – | – | > 200 µM
CCc1cc(NC(=O)COc2ccc(C(F)(F)F)cc2C(F)(F)F)n(C2CCC(F)(F)CC2)n1 | Kir3.1/Kir3.2 | activator, thallium flux | HEK293 | – | 0.33 µM
CSCC[C@H](NC(=O)[C@H](CC(C)C)NC(=O)CNC(=O)[C@H](Cc1ccccc1)NC(=O)[C@H](Cc1ccccc1)NC(=O)[C@@H](N)CCC(N)=O)C(N)=O | Substance-P receptor, with miniGs (TACR1, Homo sapiens, UniProt P25103) | miniGs recruitment, BRET | HEK293 | 30 min | 1 µM
COc1ccc(OC[C@H]2c3cccn3CC(=O)N2Cc2cccc(F)c2)cc1 | Grin2a/Grin2c (Rattus norvegicus, UniProt Q00959+Q00961) | activator | cells | – | 1.6 µM
CC1=NC(C)C(C)S1 (stereo not shown) | Olfactory receptor (Mus musculus, UniProt Q8VGQ8) | cAMP, agonist | HEK293 transfected with Olfactory receptor | – | 651 ± 123 µM
Cc1cc(NC(=O)COc2ccc(Cl)cc2Cl)n(CC(F)(F)F)n1 | Kir3.1/Kir3.2 | activator, thallium flux | HEK293 | – | 0.22 µM
CC(CCC(=O)O)C1CCC2C3C(O)CC4CC(OS(=O)(=O)O)CCC4(C)C3CCC12C (stereo not shown) | GPBAR1 | agonist | – | – | > 200 µM
CC(C)C[C@H](NC(=O)[C@H](Cc1ccccc1)NC(=O)[C@H](CCCNC(=N)N)NC(=O)[C@H](CCC(N)=O)NC(=O)[C@H](CC(C)C)NC(=O)C(C)(C)NC(=O)[C@H](C)NC(=O)[C@H](CCC(=O)O)NC(=O)[C@H](CCC(=O)O)NC(=O)[C@H](CCCCNC(=O)COCCOCCNC(=O)COCCOCCNC(=O)CC[C@H](NC(=O)CCCCCCCCCCCCCCCCCCC(=O)O)C(=O)O)NC(=O)[C@H](CC(C)C)NC(=O)[C@H](Cc1ccc(O)cc1)NC(=O)[C@H](CO)NC(=O)[C@@H](NC(=O)[C@H](CC(=O)O)NC(=O)[C@H](CO)NC(=O)[C@@H](NC(=O)[C@H](Cc1ccccc1)NC(=O)[C@@H](NC(=O)CNC(=O)[C@H](CCC(=O)O)NC(=O)C(C)(C)NC(=O)[C@@H](N)Cc1c[nH]cn1)[C@@H](C)O)[C@@H](C)O)C(C)C)C(=O)N[C@@H](CCC(=O)O)C(=O)N[C@@H](Cc1c[nH]cn1)C(=O)N[C@@H](CC(C)C)C(=O)N[C@H](C(N)=O)C(C)C | GIPR (Homo sapiens, UniProt P48546) | agonist | – | cross-reactivity | > 5 µM
CCc1cc(NC(=O)COc2cc(Cl)ccc2Cl)n(CC(F)(F)F)n1 | Kir3.1/Kir3.2 | activator, thallium flux | HEK293 | – | 0.501 µM
CC[C@H](C)[C@H]1C(=O)N(Cc2c3ccccc3cc3ccccc23)C[C@@H]2N(C(=O)NCCCC(F)(F)F)CCC(=O)N12 | clpP (Staphylococcus aureus, UniProt Q2G036) | activator | – | – | 1.7 µM
COc1ccccc1C1C(C(=O)OC2CCCC2)=C(C)NC2=C1C(=O)CC(C)(C)C2 (stereo not shown) | ADGRG1 | G13 activation, agonist, GTPγS binding, reconstitution | – | – | 6.91 ± 1.02 µM
CC(=O)N[C@@H]1[C@@H](O[C@@H]2O[C@H](C(=O)O)[C@@H](O[C@@H]3O[C@H](COS(=O)(=O)O)[C@@H](OS(=O)(=O)O)[C@H](O[C@@H]4O[C@H](C(=O)O)[C@@H](OS(=O)(=O)O)[C@H](OS(=O)(=O)O)[C@H]4OS(=O)(=O)O)[C@H]3NC(C)=O)[C@H](OS(=O)(=O)O)[C@H]2OS(=O)(=O)O)[C@H](OS(=O)(=O)O)[C@@H](COS(=O)(=O)O)O[C@H]1N=[N+]=[N-] | CXCL8 | fluorescence polarization competition | – | CXCL8 800 nM, 100% DW, together with: TAMRA-labelled probe | 12.5 ± 2.9 µM
CC(CCC(=O)O)C1CCC2C3CCC4CC(OS(=O)(=O)O)CCC4(C)C3CC(O)C12C (stereo not shown) | GPBAR1 | agonist | – | – | 290 ± 85.5 µM
CC(=O)N[C@@H]1[C@@H](O[C@@H]2O[C@H](C(=O)O)[C@@H](O[C@@H]3O[C@H](CO)[C@@H](O)[C@H](O[C@@H]4O[C@H](C(=O)O)[C@@H](OS(=O)(=O)O)[C@H](OS(=O)(=O)O)[C@H]4OS(=O)(=O)O)[C@H]3NC(C)=O)[C@H](OS(=O)(=O)O)[C@H]2OS(=O)(=O)O)[C@H](O)[C@@H](CO)O[C@H]1N=[N+]=[N-] | CXCL8 | fluorescence polarization competition | – | CXCL8 800 nM, 100% DW, together with: TAMRA-labelled probe | 71.2 ± 20.2 µM
CC(C)(O)c1ccn2c(-c3ccc(F)c(-c4ccc(F)cc4C#N)c3)cnc2c1F | GABRA1 (Homo sapiens, UniProt P14867, D219N) | Western blot, item: GABRA1 D219N protein level | HEK293T stably expressing α1 D219N | 24 h | 1.3 ± 0.1 µM
CC(=O)N[C@@H]1[C@@H](O[C@@H]2O[C@H](C(=O)O)[C@@H](OS(=O)(=O)O)[C@H](OS(=O)(=O)O)[C@H]2OS(=O)(=O)O)[C@H](OS(=O)(=O)O)[C@@H](COS(=O)(=O)O)O[C@H]1N=[N+]=[N-] | CXCL8 | probe displacement, FP competition | – | protein 800 nM, together with: TAMRA-labelled sHA tetramer probe | 556 ± 67 µM
CC(C)(C(=O)N1CCC(Nc2nc3c(c(=O)[nH]2)CCCC3)CC1)c1ccc(Cl)cc1 | SSTR4 (Homo sapiens, UniProt P31391) | β-arrestin recruitment, agonist | – | – | 3.6 µM
